Experimental data from different studies.
Protocols differ between the studies behind these lines. ± gives the spread as reported.

COCCCCn1c(C(=O)N(CC(C)C)[C@@H]2CNC[C@H](C(=O)N3CCOCC3)C2)nc2ccccc21 — Cmax (non-elderly human, plasma; oral, 80 mg once daily, day 7): 754 ng/mL
O=CC[C@@H](O)[C@H](O)[C@H](O)CO — Cmax (HPLC-fluorescence; human patients, plasma; oral, 30 mg/kg/day, cycle 2): 224000 ± 12600 nM
O=C(c1cccnc1-c1ccncc1)N1CCC(O)(Cc2ccccc2)CC1 — Cmax (healthy human, plasma; oral, 600 mg once daily, day 1, arithmetic mean): 3060 ng/mL
COc1ccnc(C[S+]([O-])c2nc3ccc(OC(F)F)cc3[nH]2)c1OC (stereo not shown) — Cmax (human, CYP2C19 normal metabolizers, plasma; oral, 40 mg/day, day 5): 3190 ± 3860 ng/mL
CC[C@H](C)[C@H](NC(=O)[C@H](CC(C)C)NC(=O)[C@H](Cc1c[nH]c2ccccc12)NC(=O)[C@H](C)NC(=O)[C@@H](NC(=O)[C@H](Cc1ccccc1)NC(=O)[C@H](CC(=O)O)NC(=O)[C@H](CCCNC(=N)N)NC(=O)[C@H](C)NC(=O)[C@H](C)NC(=O)[C@H](CC(C)C)NC(=O)[C@H](C)NC(=O)[C@H](CC(=O)O)NC(=O)[C@H](CC(C)C)NC(=O)[C@@H](NC(=O)[C@@H](NC(=O)[C@H](C)NC(=O)[C@H](CC(C)C)NC(=O)[C@H](CCC(=O)O)NC(=O)[C@H](CO)NC(=O)[C@H](CO)NC(=O)[C@H](Cc1ccccc1)NC(=O)[C@@H](NC(=O)CNC(=O)[C@H](CCC(=O)O)NC(=O)CNC(=O)[C@@H](N)Cc1cnc[nH]1)[C@@H](C)O)[C@@H](C)O)[C@@H](C)CC)[C@@H](C)CC)C(=O)N[C@@H](C)C(=O)N[C@H](C(=O)N[C@@H](CCCCN)C(=O)N[C@H](C(=O)N[C@H](C(=O)N[C@@H](CC(=O)O)C(=O)N[C@@H](CCCCN)C(=O)N[C@@H](CCCCN)C(=O)N[C@@H](CCCCN)C(=O)N[C@@H](CCCCN)C(=O)N[C@@H](CCCCN)C(=O)N[C@@H](CCCCN)C(N)=O)[C@@H](C)O)[C@@H](C)CC)[C@@H](C)O — Cmax (immunoaffinity LC-MS/MS; healthy human subjects, plasma; intravenous infusion, 1 mg single dose, infused over 15 min): 54.1 nM
NCCCS(=O)(=O)O — Cmax (human, plasma; oral, 100 mg modified-release tablet, single dose): 506 ± 187 ng/mL
COc1cc(Nc2ncc3c(n2)-c2ccc(Cl)cc2C(c2c(F)cccc2OC)=NC3)ccc1C(=O)O — Cmax (human, plasma; oral, 50 mg single, fed): 1300 nM
O=C(NCc1ccncc1)C12CC3CC(C1)CC(c1ccc(Cl)cc1)(C3)C2 — Cmax (human patients, plasma; oral, 500 mg, day 1 and day 28 combined): 5160 ± 4290 ng/mL
CC(C)(Sc1ccncc1-c1ccc(C#N)c2ccccc12)C(=O)O — Cmax (human male, plasma; oral, 2.5 mg once daily, day 7 or 21, geometric mean): 3.82 ng/mL
NC1(c2ccc(-c3nc4ccn5c(=O)[nH]nc5c4cc3-c3ccccc3)cc2)CCC1 — Cmax (human; oral, 135 mg, monotherapy, expansion): 261 ± 81.2 ng/mL
COc1ccc2nc([S@@+]([O-])Cc3ncc(C)c(OC)c3C)[nH]c2c1 — Cmax (human, CYP2C19 normal metabolizers, plasma; oral, 40 mg/day, day 5): 6270 ± 1940 ng/mL
CNCc1ccc(-c2[nH]c3cc(F)cc4c3c2CCNC4=O)cc1 — Cmax (human patients, plasma; oral, 500 mg once daily, day 15, steady state, arithmetic mean): 1390 ng/mL
CCOc1cc([C@@H](CS(C)(=O)=O)N2C(=O)c3cccc(NC(C)=O)c3C2=O)ccc1OC — Cmax (healthy human, male, plasma; oral, 20 mg single dose, with: ketoconazole multiple doses): 247 ng/mL
Cc1ccc(NC(=O)c2ccc(CN3CCN(C)CC3)cc2)cc1Nc1nccc(-c2cncc(-c3oncc3C)c2)n1 — Cmax (older healthy human adults, plasma; oral, 25.0 mg single dose, fed, mean): 945 ng/mL
O=C(c1cc(Cc2n[nH]c(=O)c3ccccc23)ccc1F)N1CCN(C(=O)C2CC2)CC1 — Cmax (human patients, plasma; oral, 200 mg twice daily, day 2, with: pegylated liposomal doxorubicin): 5200 ± 2800 ng/mL
CC(C)(C)OC[C@@H]1C(=O)NCCN1C(=O)C[C@H](N)Cc1cc(F)c(F)cc1F — Cmax (human, male, plasma; oral, single dose, fixed-dose combination with metformin, fed): 5.86 ± 1.37 ng/mL
